Published values from different studies.
Protocols differ between the studies behind these lines. Values joined by “and” are separate records of one study, mostly repeats; a detail may differ.
TDP1: Tyrosyl-DNA phosphodiesterase 1 (TDP1, Homo sapiens, UniProt Q9NUW8)
Sequence of UniProt Q9NUW8 (whole entry, looked up): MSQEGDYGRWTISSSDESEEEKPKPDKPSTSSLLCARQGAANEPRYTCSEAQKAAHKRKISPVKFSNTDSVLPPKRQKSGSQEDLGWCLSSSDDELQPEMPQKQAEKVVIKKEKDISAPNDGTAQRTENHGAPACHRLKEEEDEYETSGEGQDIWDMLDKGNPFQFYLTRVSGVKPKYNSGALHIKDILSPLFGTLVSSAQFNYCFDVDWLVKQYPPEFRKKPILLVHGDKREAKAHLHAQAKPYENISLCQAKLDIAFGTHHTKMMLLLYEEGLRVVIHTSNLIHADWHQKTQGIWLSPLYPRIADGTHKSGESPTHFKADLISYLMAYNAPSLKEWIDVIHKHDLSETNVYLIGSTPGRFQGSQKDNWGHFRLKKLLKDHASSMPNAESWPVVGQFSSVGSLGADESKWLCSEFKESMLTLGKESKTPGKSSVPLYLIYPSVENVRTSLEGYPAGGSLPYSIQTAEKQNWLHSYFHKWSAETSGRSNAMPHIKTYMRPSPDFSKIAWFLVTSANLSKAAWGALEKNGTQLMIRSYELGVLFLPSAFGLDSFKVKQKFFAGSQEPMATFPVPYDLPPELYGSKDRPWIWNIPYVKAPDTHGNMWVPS
Uncharacterized protein: Uncharacterized protein (Trypanosoma brucei brucei, UniProt Q386Q8)
ppa: Inorganic pyrophosphatase (ppa, Escherichia coli, UniProt P0A7A9)
Sequence of UniProt P40261 (whole entry, looked up): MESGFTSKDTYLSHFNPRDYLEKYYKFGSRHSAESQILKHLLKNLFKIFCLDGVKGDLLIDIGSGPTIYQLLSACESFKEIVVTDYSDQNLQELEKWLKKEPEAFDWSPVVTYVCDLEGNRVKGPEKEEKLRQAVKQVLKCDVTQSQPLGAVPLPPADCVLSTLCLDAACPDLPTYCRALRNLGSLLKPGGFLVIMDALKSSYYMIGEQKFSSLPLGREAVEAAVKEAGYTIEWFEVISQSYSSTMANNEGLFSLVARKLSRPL
Sequence of UniProt P0A7A9 (whole entry, looked up): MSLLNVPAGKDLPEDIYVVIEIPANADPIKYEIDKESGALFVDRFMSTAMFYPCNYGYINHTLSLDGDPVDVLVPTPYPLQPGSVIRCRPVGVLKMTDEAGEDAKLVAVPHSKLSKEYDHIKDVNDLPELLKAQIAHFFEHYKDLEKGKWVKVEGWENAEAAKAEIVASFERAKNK
Sequence of UniProt P22310 (whole entry, looked up): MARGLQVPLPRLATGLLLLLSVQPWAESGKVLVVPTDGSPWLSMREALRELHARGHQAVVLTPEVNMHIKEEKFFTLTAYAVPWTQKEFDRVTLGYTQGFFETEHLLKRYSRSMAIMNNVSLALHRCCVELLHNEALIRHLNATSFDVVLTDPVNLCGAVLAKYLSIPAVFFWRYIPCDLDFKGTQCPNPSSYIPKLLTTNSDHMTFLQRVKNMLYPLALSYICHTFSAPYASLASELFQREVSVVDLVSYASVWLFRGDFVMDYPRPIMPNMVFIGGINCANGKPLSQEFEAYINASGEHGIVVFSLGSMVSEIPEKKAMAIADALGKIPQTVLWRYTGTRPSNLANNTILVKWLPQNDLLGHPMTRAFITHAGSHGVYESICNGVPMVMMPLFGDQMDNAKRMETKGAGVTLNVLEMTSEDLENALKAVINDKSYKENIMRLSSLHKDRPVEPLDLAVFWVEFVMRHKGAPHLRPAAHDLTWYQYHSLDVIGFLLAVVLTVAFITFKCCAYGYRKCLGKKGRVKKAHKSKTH
Sequence of UniProt P07550 (whole entry, looked up): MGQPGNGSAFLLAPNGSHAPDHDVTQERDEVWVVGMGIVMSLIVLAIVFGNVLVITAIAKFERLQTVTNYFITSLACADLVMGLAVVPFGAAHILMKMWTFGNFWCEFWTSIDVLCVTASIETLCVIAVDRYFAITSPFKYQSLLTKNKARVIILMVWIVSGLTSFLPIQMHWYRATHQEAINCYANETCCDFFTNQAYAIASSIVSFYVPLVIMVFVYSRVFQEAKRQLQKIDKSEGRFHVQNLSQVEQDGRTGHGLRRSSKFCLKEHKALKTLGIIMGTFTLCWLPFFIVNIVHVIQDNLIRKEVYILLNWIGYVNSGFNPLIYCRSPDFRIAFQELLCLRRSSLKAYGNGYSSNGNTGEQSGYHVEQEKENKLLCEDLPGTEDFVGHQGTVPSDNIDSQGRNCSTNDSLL
Sequence of UniProt O09047 (whole entry, looked up): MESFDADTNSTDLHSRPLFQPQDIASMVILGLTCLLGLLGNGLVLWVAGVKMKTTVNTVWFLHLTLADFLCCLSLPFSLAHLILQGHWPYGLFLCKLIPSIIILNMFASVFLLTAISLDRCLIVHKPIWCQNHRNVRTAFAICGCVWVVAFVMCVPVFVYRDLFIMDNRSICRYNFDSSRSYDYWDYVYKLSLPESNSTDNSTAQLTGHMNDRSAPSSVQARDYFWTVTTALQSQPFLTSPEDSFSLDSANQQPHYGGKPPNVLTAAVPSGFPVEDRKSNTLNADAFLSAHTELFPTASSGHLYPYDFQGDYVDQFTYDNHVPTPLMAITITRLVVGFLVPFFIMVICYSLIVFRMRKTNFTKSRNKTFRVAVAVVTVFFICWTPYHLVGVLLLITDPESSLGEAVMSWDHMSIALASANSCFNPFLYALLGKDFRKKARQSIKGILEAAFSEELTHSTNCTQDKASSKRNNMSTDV
Sequence of UniProt Q13237 (whole entry, looked up): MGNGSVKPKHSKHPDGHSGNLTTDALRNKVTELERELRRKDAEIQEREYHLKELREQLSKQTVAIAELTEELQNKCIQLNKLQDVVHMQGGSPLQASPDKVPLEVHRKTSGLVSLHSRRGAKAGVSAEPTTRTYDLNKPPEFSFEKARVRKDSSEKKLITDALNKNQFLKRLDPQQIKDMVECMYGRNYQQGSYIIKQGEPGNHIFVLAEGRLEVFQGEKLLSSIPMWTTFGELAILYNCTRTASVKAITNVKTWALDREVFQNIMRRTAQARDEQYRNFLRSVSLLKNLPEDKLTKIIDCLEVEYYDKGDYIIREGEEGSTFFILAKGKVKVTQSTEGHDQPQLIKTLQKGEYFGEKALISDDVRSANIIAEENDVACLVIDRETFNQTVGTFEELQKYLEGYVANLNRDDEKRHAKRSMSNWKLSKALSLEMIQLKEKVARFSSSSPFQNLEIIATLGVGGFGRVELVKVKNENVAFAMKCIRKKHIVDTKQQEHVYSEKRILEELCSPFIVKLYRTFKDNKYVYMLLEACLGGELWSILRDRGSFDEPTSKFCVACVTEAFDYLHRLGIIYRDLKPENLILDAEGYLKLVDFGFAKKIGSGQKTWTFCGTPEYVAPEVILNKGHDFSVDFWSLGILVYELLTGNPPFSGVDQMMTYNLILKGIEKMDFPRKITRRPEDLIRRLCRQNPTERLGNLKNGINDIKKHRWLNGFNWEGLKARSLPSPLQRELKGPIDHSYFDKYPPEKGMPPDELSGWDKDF
Sequence of UniProt P41146 (whole entry, unmodified, looked up): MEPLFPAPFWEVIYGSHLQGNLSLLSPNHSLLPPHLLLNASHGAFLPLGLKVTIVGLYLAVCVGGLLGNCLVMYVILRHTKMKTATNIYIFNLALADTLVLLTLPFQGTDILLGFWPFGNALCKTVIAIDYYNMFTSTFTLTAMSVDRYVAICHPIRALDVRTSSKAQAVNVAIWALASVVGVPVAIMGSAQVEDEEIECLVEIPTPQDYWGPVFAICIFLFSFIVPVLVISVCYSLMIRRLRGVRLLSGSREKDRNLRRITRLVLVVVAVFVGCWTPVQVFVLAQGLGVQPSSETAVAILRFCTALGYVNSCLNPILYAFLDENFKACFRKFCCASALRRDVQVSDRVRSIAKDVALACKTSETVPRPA
Sequence of UniProt Q15391 (whole entry, unmodified, looked up): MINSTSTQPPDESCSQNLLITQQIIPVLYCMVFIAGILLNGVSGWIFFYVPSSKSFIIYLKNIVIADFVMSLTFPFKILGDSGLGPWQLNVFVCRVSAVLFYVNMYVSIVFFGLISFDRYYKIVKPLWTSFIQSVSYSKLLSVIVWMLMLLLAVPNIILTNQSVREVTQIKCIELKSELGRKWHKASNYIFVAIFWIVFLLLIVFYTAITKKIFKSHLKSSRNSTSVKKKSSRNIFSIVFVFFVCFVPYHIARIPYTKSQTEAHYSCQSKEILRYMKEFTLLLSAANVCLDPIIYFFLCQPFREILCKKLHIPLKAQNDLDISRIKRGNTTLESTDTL
Sequence of UniProt Q9UKP6 (whole entry, looked up): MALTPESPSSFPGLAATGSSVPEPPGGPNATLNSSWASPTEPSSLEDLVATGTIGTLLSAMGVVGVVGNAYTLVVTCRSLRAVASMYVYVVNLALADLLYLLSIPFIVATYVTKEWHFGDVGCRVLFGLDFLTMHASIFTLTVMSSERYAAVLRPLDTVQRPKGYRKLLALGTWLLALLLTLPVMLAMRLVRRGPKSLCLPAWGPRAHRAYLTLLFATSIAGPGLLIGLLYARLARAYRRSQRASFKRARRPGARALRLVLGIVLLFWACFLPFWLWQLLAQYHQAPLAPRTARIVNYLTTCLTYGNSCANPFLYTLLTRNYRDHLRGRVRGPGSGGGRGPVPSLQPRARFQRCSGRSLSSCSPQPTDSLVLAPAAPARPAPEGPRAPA

Cc1cc(C=NOCc2ccc3nc(-c4ccccc4)c(Nc4ccc(C(=O)O)cc4)n3c2)c(C)n1-c1ccc(N2CCCC2)c([N+](=O)[O-])c1 (mixture of isomers)
inhibition (TDP1; enzyme activity, inhibitor; 100 µM, unpurified compound): 0.7%

O=C(NCCCN1CCC2(CC1)OCc1ccccc12)C1CCCN1Cc1ccccc1 (stereo not drawn)
Ki (Nociceptin receptor (OPRL1, Homo sapiens, UniProt P41146, Q107A)): 32 nM

CNc1cc(C)c(C(N)=O)cn1
IC50 (Nicotinamide N-methyltransferase (NNMT, Homo sapiens, UniProt P40261); enzyme activity in cells, inhibitor): 63.1 nM and < 100 nM

Cc1ccc(C)c(C2=Nn3c(nnc3C3CCCCC3)SC2C)c1 (stereo not drawn)
IC50 (Uncharacterized protein; inhibitor, coupled colorimetric; Trypanosoma brucei): 256000 nM

CC(C)C[C@H](NC(=O)[C@H](C)NC(=O)[C@H](CO)NC(=O)[C@@H]1CCCN1C(=O)[C@@H]1CCCN1C(=O)[C@H](CCC(N)=O)NC(=O)[C@H](CC(C)C)NC(=O)[C@@H](N)[C@@H](C)O)C(=O)N[C@@H](CCCNC(=N)N)C(=O)N[C@@H](CCCNC(=N)N)C(=O)N[C@@H](CCCNC(=N)N)C(=O)N[C@@H](Cc1c[nH]cn1)C(=O)N[C@@H](Cc1ccc(O)cc1)C(=O)N[C@@H](Cc1c[nH]cn1)C(=O)N[C@@H](Cc1c[nH]cn1)C(=O)N[C@@H](C)C(=O)N[C@@H](CC(C)C)C(=O)N1CCC[C@H]1C(=O)N1CCC[C@H]1C(=O)N[C@@H](CO)C(=O)N[C@@H](CCCNC(=N)N)C(=O)O
EC50 (C3a anaphylatoxin chemotactic receptor (C3ar1, Mus musculus, UniProt O09047); beta-arrestin 1 recruitment, agonist, NanoBiT; mouse): 457 nM

Cc1ccc2c(c1)C(O)(CC(=O)c1ccc3c(c1)OCCO3)C(=O)N2 (stereo not drawn)
IC50 (Uncharacterized protein; inhibitor, coupled colorimetric; Trypanosoma brucei): > 100000 nM

Cc1nn(-c2cccc(N)c2)c(=O)c2cnc(Nc3ccc(N4CCNCC4)cc3)nc12
IC50 (MAP/microtubule affinity-regulating kinase 3 (MARK3, Homo sapiens, UniProt P27448); kinase activity, inhibitor, SelectScreen kinase profiling): > 10000 nM

Cn1ccc2c(N3CCN(CCCCOc4ccc5c(c4)NC(=O)CC5)CC3)cccc21
Ki (Beta-2 adrenergic receptor (ADRB2, Homo sapiens, UniProt P07550); ligand displacement, radioligand): 80 nM

NCCCC[C@H](NC(=O)[C@H](C/C=C\C[C@H](NC(=O)[C@@H]1CCCN1)C(=O)N[C@@H](CCCCN)C(=O)NCCCN)NC(=O)[C@@H]1CCCN1)C(=O)NCCCN
Kd (HIV-1 frameshift site RNA; SPR): 115 nM

CC(=O)OC1CCC2(C)C(CCC3(C)C2CC=C2C4C(C)C(C)CCC4(C(=O)O)CCC23C)C1(C)C (stereo not drawn)
Ki (UDP-glucuronosyltransferase 1A4 (UGT1A4, Homo sapiens, UniProt P22310); enzyme activity, inhibitor; human, liver microsomes): 638 nM

Cc1c[nH]c2nccc(-c3ccc(C(=O)N[C@@H]4c5c(F)cc(C(F)F)cc5C[C@@H]4O)cn3)c12
Kd (cGMP-dependent protein kinase 2 (PRKG2, Homo sapiens, UniProt Q13237); binding, competition with immobilised ligand): 165 nM

Cc1ccc2c(c1Br)C(O)(CC(=O)c1ccc(F)cc1)C(=O)N2 (stereo not drawn)
IC50 (ppa; enzyme activity, inhibitor): > 100000 nM

CCc1nc2cc3ccccc3cc2cc1C(=O)N1CCC[C@H]1C(=O)N[C@@H](C/C=C/C[C@H](NC(=O)[C@@H]1CCCN1C(=O)c1cc2cc3ccccc3cc2nc1CC)C(=O)N[C@@H](CCCCN)C(=O)NCCCN)C(=O)N[C@@H](CCCCN)C(=O)NCCCN
Kd (HIV-1 frameshift site RNA; SPR): 723 nM

N#CSc1sc(N)nc1-c1ccccc1
IC50 (Uncharacterized protein; enzyme activity, inhibitor, coupled colorimetric; added: E. coli pyrophosphatase coupling): 24500 nM

O=c1ccn([C@@H]2O[C@H](COP(=O)(O)CP(=O)(O)O)[C@@H](O)[C@H]2O)c(=S)[nH]1
EC50 (P2Y purinoceptor 14 (P2RY14, Homo sapiens, UniProt Q15391, V99A); calcium mobilisation, agonist; cells with Gαqi5; receptor mutant V99A): 241 nM

CC(C)[C@H](NC(=O)[C@@H]1CSSC(C)(C)[C@H](NC(=O)[C@@H](N)CC(=O)O)C(=O)N[C@@H](Cc2ccccc2)C(=O)N[C@H](Cc2c[nH]c3ccccc23)C(=O)N[C@@H](CCCN)C(=O)N[C@@H](Cc2ccc(O)cc2)C(=O)N1)C(=O)O
EC50 (Urotensin-2 receptor (UTS2R, Homo sapiens, UniProt Q9UKP6); GoB activation, agonist, BRET2 biosensor; HEK293): 60.3 nM

COc1ccc2c(c1OC)C(=O)N(c1ccc(OC(F)(F)F)cc1)C2
IC50 (ppa; enzyme activity, inhibitor): > 100000 nM

O=C(O)c1ccc(Nc2c(-c3ccc(CON=CC4C(=O)Oc5ccc(Cl)cc5C4=O)cc3)nc3cc(-c4ccccc4)ccn23)cc1 (mixture of isomers)
inhibition (TDP1; enzyme activity, inhibitor; 100 µM, unpurified compound): 102%
